Results gathered from unrelated publications.
Every numbered part comes from another study and shows a few of its results, in no order.

Sample 1 — technique: protein binding microarray; molecule type: double-stranded DNA, one strand shown; medium: in vitro; tested at: not given; baseline: not given; reading: higher = stronger binding; endpoint: E-score
Target: Histone acetyltransferase KAT6A, winged helix 1, GST fusion (KAT6A, Homo sapiens, UniProt Q92794, residues 1-85)
Notes: 8-mer, flanks averaged, mean of 2 arrays, mostly near background
Construct (chain): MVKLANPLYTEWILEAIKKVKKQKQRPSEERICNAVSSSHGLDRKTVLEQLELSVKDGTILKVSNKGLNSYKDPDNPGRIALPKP
AATTGACA: 0.0102
GGACGTTA: 0.0422
ACAACTCT: -0.269
CTCTCTAC: -0.108
CCCGCGTA: 0.343
ACCTTTAA: -0.129
ACAAGAGC: -0.111
AAGCGGAT: 0.124
AGAAGTGA: -0.137
CTCTAGGC: 0.159
AGTAACGA: -0.0494
CATTCGTC: -0.143
CGGTGCCC: 0.25
AGGAGTTG: -0.122
AACACATG: -0.138
CCAGTCGC: 0.0817
CAGGAGCA: -0.176
CCTGCAAC: -0.152
TAAGGCAA: -0.202
TCTTGTAA: -0.158
AAGCGATC: 0.105

Sample 2 — technique: aptamer microarray, sandwich; molecule type: DNA with 2'F-ANA; medium: in vitro; tested at: 200 nM; added: Cy3 exosite-II aptamer, 400 nM; reading: higher = stronger binding; endpoint: mean fluorescence intensity; oligonucleotide: GGTTGGTGTGGTTGG
Target: Prothrombin, mature alpha-thrombin (F2, Homo sapiens, UniProt P00734)
Notes: whole 15-mer aptamer, many near background
2'F-ANA at 1 2 3 4 6 11 12 14: 64.1 a.u.
2'F-ANA at 2 3 4 10 11 12 13 14: 187 a.u.
2'F-ANA at 1 6 7 8 9 10 11 15: 56.1 a.u.
2'F-ANA at 1 4 5 6 9 13: 47 a.u.
2'F-ANA at 1 2 9 10 11 14 15: 107 a.u.
2'F-ANA at 1 2 3 6 7 9 11 12 14: 68.1 a.u.
2'F-ANA at 2 6 8 10 12 14 15: 84.3 a.u.
2'F-ANA at 1 3 5 8 12 13: 107 a.u.
2'F-ANA at 2 3 5 6 7 9 12 13 15: 109 a.u.
2'F-ANA at 8 9 11 15: 477 a.u.
2'F-ANA at 1 2 3 10 15: 74.4 a.u.
2'F-ANA at 1 2 5 6 7 10 12 15: 52.9 a.u.
2'F-ANA at 1 3 4 6 7 8 9 10 13 14: 51.3 a.u.
2'F-ANA at 3 4 5 9 10 13 14: 49 a.u.
2'F-ANA at 2 3 6 8 9 10 13: 317 a.u.
2'F-ANA at 3 5 7 8 9 11 15: 118 a.u.
2'F-ANA at 1 2 3 4 8 10 11 13 14 15: 53.6 a.u.
2'F-ANA at 1 3 5 8 11 12 14: 56.3 a.u.
2'F-ANA at 1 7 8 9 11 12 14 15: 71.6 a.u.
2'F-ANA at 2 3 7 13 14 15: 456 a.u.

Sample 3 — technique: RNA Bind-n-Seq; molecule type: RNA; medium: in vitro; tested at: 200 nM; notes: whole 134-nt RNA, ends assumed; added: 150 mM LiCl; baseline: input library; reading: higher = stronger binding; endpoint: log2 enrichment; each molecule: 7-deaza-guanosine replaces G
Target: Fragile X messenger ribonucleoprotein 1, C-terminal low-complexity region (Fmr1, Mus musculus, UniProt P35922)
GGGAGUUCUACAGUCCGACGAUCGUCCUGUGCUACACAUCGUAUGUACCGAAUCGGGGUGGGGAAAAAAAGGGGAAAGGGGAAAGUAUUAUGUUACGCCGUUCGGAUCUGCACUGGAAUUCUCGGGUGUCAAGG: 0.844
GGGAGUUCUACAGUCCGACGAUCAGUCCUGUGCUACACAUCGUAUGUACCGAAUCGGAAAAAGGUUUUUGGUUUUUUUGGAAAGUAUUAUGUUACGCCGUUCGGAUCUGCACUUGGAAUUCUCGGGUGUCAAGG: -3.09
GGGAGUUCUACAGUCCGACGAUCUGGCCCUGUUGGCAUGCGGGGAGGAAGAGGUGGCCUCAUGGAUCGUGGUGGUCCCGGUGGAAUGUUCAGAGGUGGCCGUGGUGGAGACAGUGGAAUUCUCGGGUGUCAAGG: 0.268
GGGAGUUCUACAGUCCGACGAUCCCUGUGCUACACAUCGUAUGUACCGAAUCGGGGUUUUUUUGGUUUUUUUGGUUUUUUUGGGAAAGUAUUAUGUUACGCCGUUCGGAUCUGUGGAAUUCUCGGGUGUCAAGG: -0.439
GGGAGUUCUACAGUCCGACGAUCCACCGACAACACGCACCCACACAGACACAGAGGGAAGGGGUUGGGAUGGGGACAGGGUGCACAGCAGGGCGGGGUAGGACCCCAGCCCCUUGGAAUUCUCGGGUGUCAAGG: 0.343
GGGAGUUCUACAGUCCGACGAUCUCAAGUCCUGUGCUACACAUCGUAUGUACCGAAUCGGAAAGGAAAGGGAAAGGGAAAGUAUUAUGUUACGCCGUUCGGAUCUGCACUUCCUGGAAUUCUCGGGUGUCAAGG: -0.386
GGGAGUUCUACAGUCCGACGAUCCCUGUGCUACACAUCGUAUGUACCGAAUCGGGUUUUUUUGGGAAAAAAAGGGAAAAAGGGAAAGUAUUAUGUUACGCCGUUCGGAUCUGCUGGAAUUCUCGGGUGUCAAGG: -2.46
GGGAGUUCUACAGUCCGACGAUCCUCAAGUCCUGUGCUACACAUCGUAUGUACCGAAUCGGUUUUUUUGGAGGUGGAAAGUAUUAUGUUACGCCGUUCGGAUCUGCACUUCCAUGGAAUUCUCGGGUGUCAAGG: 0.0768

Sample 4 — technique: RNA Bind-n-Seq; molecule type: RNA; medium: in vitro; tested at: 100 nM; baseline: input RNA pool; reading: higher = stronger binding; endpoint: bound/input enrichment
Target: RING finger protein unkempt homolog, zinc fingers 1-6, SBP tag (UNK, Homo sapiens, UniProt Q9C0B0, residues 30-357)
UniProt Q9C0B0, sequence (30-357, looked up): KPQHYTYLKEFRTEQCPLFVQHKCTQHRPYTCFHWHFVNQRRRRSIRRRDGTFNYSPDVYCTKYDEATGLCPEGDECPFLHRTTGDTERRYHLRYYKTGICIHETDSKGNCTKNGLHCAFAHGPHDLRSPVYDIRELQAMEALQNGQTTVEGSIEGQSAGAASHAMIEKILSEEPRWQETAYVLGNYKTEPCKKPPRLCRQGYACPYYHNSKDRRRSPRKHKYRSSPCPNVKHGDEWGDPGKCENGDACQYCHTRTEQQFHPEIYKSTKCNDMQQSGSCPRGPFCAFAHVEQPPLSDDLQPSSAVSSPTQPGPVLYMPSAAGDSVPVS
Notes: RNA with constant flanks, vertebrate orthologous sites, ends assumed
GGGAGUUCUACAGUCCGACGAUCCUACUAUAAACAACUCAGGGCAGUAUUCUCGAUAUCCUUACAGUAACCUAAAUCAGGGAUUAGUUAACAAUACAGGGAUGAAUCAGAAUUUAGGCCUUACAAGUAAUACUCCAAUGAACCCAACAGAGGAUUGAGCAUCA: 1.02 ratio
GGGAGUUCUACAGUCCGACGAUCCUGUUGCAUGAAAUAUGUCUACCCAGAGAAGUAUCACACUAUAAAUAUUAUCAAAUAAUUUAGCUACAGUCUUCUUAGAUAUUAAAUUGUAUGUCAAGCAUUUAAAAGUCAAUUUGAGAUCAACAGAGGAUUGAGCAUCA: 0.615 ratio
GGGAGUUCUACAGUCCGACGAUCUUACAGUCAUUGAUGGACUCUAUUUUUUUAUUAUUACUUGGACCUUGGUCGUUUUUAUACUAGCAAUGAAAAAUGUCUUGUUUUAAUUUGUUUUUUUUUUUUCGGGGGGGGGUACGGGGUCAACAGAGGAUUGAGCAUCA: 3.15 ratio
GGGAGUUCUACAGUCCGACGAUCAUUAAAUGUAUAUCAAAUGCUGGAUGUCACAUUACACCAUCAUUUAGAAUAGAUGUUAAUUUGUUAUAGUUAAGCUACAAAUAGGUUUCCUUAAACCGGAGAUGCACUCCUCUCGUCUCACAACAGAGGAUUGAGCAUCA: 0.971 ratio
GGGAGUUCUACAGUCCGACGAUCAUGUAGUUUGUUUUUAAUUUCAAGCAAAAUCUUAUUGUACUUGAAUGUGCCCUGUUUUGUUAGCACACCUAGACUUGCUGUAAACUGUACUCAUGUCCCAGUAUGUACGUUCUUUCUAUGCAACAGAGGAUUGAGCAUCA: 1.2 ratio
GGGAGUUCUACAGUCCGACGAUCUUUUAAUCGAUCAGGUCUGUAAAUGUGUACUAAGAAAAUCAAGUUUAUUUAUAAACAGAAGAGUUUAUUUAAAGAGAAGGUCAUUCUUCAUUGAUAUGGUGACAGACAUGGAUUCCAUGUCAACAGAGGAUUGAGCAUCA: 0.487 ratio
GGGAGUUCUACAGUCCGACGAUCCUCUAUGGGCCUCGCAGAGUUGAAAUAAUGGAAGAGGAAAGUGAACAGUAAUCUUCAUUUUAGUAUUUAUGUUUAGGUGUGAAAUAAAUGUUACUUGUUGAUCAUUUCUAUAAUCCAGAGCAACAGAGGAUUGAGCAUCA: 0.698 ratio
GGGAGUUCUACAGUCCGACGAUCAAAUUUAUUUCAUGCCCUGGACUCCCUACCGCACUGAUACUUUAAUAGAGUAUGCUUCUUUAGAAGAUUUCCAAAACAGUCGCCAAACAACAACAUAUAAACUUCCAAAUCGAGUAGAUGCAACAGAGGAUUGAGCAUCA: 0.857 ratio
